# Published values gathered from unrelated publications.
# Protocols differ between the studies behind these lines. “And” joins repeats or separate records; there may be more than shown. Numbers after ± are the reported error.
# Dipeptidyl peptidase 8: Dipeptidyl peptidase 8 (Homo sapiens, UniProt Q6V1X1)
# UniProt Q6V1X1, sequence (whole entry, looked up): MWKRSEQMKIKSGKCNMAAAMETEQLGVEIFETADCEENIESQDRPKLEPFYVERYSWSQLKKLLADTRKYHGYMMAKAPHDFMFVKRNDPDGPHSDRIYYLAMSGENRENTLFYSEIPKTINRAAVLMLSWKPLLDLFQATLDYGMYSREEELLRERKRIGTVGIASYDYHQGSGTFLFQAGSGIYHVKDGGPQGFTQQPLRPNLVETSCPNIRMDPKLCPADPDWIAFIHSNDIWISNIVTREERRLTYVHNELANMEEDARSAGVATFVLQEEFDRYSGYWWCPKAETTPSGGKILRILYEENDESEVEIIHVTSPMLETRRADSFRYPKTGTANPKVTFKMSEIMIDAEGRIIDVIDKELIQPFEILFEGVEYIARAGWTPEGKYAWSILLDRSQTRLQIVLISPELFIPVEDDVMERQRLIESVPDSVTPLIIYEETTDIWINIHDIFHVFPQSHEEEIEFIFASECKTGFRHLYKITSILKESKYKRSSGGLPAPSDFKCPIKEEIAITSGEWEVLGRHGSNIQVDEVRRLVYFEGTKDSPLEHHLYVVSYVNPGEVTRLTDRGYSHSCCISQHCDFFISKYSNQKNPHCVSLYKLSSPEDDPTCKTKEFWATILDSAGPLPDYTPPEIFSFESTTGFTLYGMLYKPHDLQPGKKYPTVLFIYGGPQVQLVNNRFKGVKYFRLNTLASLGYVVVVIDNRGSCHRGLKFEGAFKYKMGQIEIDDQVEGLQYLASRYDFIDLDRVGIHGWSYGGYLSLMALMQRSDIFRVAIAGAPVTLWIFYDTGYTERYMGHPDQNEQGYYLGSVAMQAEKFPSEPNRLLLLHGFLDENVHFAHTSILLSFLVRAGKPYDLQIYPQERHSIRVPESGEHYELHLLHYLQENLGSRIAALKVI
# Astl: Astacin-like metalloendopeptidase (Astl, Mus musculus, UniProt Q6HA09)
# UniProt Q6HA09, sequence (whole entry, looked up): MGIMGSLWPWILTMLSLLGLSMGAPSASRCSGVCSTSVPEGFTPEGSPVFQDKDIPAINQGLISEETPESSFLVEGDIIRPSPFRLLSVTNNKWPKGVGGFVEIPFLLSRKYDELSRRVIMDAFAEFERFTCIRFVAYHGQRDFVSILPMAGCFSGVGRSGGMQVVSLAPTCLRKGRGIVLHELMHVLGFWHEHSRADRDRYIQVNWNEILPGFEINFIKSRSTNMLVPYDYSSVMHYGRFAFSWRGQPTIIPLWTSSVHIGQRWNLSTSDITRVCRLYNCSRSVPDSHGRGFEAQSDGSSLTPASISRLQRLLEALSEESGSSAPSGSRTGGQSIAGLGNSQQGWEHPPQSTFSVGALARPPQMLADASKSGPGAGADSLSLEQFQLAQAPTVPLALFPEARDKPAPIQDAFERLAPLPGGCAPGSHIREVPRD
# MAPK8: Mitogen-activated protein kinase 8 (MAPK8, Homo sapiens, UniProt P45983)
# UniProt P45983, sequence (whole entry, looked up): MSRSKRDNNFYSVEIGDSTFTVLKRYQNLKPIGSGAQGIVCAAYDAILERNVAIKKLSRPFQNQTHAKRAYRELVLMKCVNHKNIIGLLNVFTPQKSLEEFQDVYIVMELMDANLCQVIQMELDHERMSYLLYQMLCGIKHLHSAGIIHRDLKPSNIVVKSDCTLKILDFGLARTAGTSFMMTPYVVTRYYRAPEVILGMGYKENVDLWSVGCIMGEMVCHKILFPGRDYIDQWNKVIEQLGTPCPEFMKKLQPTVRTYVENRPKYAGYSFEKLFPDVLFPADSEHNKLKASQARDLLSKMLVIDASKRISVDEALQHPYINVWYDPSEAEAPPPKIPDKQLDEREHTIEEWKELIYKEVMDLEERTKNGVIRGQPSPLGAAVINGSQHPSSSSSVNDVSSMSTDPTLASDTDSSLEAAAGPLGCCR
# UniProt Q14191, sequence (500-946, looked up): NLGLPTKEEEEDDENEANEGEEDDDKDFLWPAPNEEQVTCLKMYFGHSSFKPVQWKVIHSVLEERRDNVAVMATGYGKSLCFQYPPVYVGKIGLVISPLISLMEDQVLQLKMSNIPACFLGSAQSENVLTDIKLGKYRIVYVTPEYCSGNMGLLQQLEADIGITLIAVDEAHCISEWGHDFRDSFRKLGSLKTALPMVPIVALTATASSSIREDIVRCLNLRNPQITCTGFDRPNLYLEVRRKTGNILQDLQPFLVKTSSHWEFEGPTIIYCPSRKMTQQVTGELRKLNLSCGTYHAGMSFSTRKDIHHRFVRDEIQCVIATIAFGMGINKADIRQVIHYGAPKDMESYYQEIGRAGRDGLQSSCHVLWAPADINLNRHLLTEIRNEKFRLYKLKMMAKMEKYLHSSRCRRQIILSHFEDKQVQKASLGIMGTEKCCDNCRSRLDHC
# UniProt Q9HB29, sequence (whole entry, looked up): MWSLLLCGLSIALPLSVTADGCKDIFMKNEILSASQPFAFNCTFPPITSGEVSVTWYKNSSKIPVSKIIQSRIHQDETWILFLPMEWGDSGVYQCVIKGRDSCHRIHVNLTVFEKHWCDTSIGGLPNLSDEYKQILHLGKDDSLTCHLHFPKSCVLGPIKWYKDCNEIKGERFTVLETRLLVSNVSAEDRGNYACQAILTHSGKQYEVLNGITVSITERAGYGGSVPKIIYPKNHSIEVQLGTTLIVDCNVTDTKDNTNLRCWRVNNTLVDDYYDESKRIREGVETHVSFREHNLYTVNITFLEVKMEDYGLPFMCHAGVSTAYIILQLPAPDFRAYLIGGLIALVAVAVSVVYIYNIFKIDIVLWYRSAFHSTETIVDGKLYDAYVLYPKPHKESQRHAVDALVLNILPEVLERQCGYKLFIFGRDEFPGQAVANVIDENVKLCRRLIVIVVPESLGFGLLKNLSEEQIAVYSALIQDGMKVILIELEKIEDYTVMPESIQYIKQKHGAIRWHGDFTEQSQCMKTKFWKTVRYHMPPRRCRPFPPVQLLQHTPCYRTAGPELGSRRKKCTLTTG
# UniProt P35968, sequence (whole entry, looked up): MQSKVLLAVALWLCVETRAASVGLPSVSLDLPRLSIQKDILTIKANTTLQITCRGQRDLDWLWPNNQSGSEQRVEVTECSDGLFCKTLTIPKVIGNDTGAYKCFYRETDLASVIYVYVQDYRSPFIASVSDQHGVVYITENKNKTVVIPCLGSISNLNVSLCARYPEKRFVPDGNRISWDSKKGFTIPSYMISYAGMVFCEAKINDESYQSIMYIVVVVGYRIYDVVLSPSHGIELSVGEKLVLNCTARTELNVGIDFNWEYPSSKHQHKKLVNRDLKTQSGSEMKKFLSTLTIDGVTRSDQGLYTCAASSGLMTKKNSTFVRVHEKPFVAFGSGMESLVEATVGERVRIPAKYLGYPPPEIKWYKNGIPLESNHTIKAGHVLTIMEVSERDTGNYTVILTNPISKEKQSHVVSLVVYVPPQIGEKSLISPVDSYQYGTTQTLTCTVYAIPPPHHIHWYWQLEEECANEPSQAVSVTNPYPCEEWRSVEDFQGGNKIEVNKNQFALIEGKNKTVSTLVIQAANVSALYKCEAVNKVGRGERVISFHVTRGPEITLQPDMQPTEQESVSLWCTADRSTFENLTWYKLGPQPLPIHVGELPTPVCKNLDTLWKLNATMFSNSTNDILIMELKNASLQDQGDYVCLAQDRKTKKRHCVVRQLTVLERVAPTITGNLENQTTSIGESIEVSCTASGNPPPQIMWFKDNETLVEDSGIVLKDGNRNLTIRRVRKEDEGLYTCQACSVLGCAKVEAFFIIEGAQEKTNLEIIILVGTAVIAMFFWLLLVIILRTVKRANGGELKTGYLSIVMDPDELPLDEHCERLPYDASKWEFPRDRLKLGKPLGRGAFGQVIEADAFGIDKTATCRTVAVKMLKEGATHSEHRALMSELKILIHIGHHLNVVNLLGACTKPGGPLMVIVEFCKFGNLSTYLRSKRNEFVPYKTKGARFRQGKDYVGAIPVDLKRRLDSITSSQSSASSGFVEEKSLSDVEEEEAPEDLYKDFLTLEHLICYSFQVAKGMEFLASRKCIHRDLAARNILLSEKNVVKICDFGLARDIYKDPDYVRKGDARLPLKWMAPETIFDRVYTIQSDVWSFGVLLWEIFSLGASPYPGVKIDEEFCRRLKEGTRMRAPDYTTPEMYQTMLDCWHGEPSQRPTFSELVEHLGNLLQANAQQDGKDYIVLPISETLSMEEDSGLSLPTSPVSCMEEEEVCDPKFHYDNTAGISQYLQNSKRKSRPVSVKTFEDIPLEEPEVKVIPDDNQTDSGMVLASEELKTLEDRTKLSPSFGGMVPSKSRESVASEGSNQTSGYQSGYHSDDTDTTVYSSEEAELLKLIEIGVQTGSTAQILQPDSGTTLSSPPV
Compound,target or system,test,system,conditions,scale,endpoint,value
COc1ccccc1-c1ccncc1C(=O)Nc1nnc(OCc2ccc(Cl)cc2)s1,"Bifunctional 3'-5' exonuclease/ATP-dependent helicase WRN, residues 500-946 (WRN, Homo sapiens, UniProt Q14191)","ATPase activity, ADP-Glo",,30 µM,baseline: 0 µM cpd,remaining activity,97%
C[C@](C(=O)NC1CCOCC1)(c1cncnc1)N(C(=O)[C@H](F)Cl)c1ccc(OC(F)(F)Cl)cc1,Dipeptidyl peptidase 8,"enzyme activity, inhibitor",,10 µM,,remaining activity,102%
CC(=O)N1c2ccc(-c3ccc(CNC(=O)c4cn5cc(-c6cnc(N)nc6)nc(N6CCOCC6)c5n4)cc3)cc2CC[C@@H]1C,"Serine-protein kinase ATM (ATM, Homo sapiens, UniProt Q13315)","enzyme activity, inhibitor, radiometric",,1 µM,,remaining activity,100%
COc1ccc(CN(CC(=O)NO)Cc2cccc(C(=O)O)c2)cc1,Astl,"enzyme activity, inhibitor, fluorogenic",,5 µM,,remaining activity,67 ± 4%
COc1ccc(NC(=O)c2c(Nc3ccccc3)sc(C(=O)N/N=C/c3ccc(OC)c(OC)c3)c2NC(C)=O)cc1,"Vascular endothelial growth factor receptor 2 (KDR, Homo sapiens, UniProt P35968)","enzyme activity, inhibitor",,1 µM,,remaining activity,65.3%
Cc1cc(NC(=O)c2cccc(NC(=O)/C(C#N)=C/C(C)(C)C)c2)ccc1Nc1nccc(-c2cccnc2)n1,"Mitogen-activated protein kinase 8, phosphorylated (MAPK8, Homo sapiens, UniProt P45983)","enzyme activity after dialysis, inhibitor",,"10 µM, 2 days, unit not given",baseline: no inhibitor,remaining activity,0.403
CC(C)[C@@H]1NC(=O)[C@H](Cc2ccccc2)NC(=O)CSC[C@@H](C(N)=O)NC(=O)[C@H](CCC(=O)O)NC(=O)[C@H](CO)NC(=O)[C@H](Cc2c[nH]c3cccc(Cl)c23)NC(=O)[C@H](C2CCCCC2)NC(=O)[C@H](C(C)C)NC(=O)[C@H](Cc2ccc(O)cc2)NC(=O)[C@H](CC(=O)O)NC(=O)[C@H](Cc2c[nH]c3ccccc23)NC(=O)[C@H](Cc2ccc(N)nc2)NC(=O)[C@H](Cc2c[nH]c3ccc(Cl)cc23)NC(=O)[C@H](CCC(=O)O)NC1=O,"Interleukin-1 receptor-like 2 (IL1RL2, Homo sapiens, UniProt Q9HB29)","reporter gene (SEAP), inhibitor, HEK-Blue IL-36R reporter",HEK-Blue IL-36R cells,"0.0017 µM, 6 h, added: IL-36β 0.3 ng/mL",,remaining activity,97.7%
CN(Cc1cc(C2CC2)on1)C(=O)c1cccc(-c2ccc3c(c2)CCO3)c1,"Acetyl-CoA synthetase (Cryptococcus neoformans, UniProt J9VFT1)","enzyme activity, inhibitor, coupled pyrophosphate",,25 µM,,remaining activity,89.7% and 94.3%
N#Cc1ccc(CN(CCC(=O)NO)Cc2ccc(C#N)cc2)cc1,Astl,"enzyme activity, inhibitor, fluorogenic",,0.25 µM,,remaining activity,88 ± 4%
COC1CN([C@H]2CC[C@H]([C@@]3(C)Oc4c(Cl)cc(C(=O)NCc5c(SC)cc(C)[nH]c5=O)c(C)c4O3)CC2)C1,,"RNA-seq, item: COMMD3-BMI1","human cancer patients, whole blood","dose not given, 24 h, PRC2 target gene",baseline: pretreatment sample,log2 fold change,1.25
O=C(CN(Cc1ccc(Cl)c(O)c1F)Cc1ccc(Cl)c(O)c1F)NO,Astl,"enzyme activity, inhibitor, fluorogenic",,0.25 µM,,remaining activity,72 ± 4%
COC(=O)c1cc2cc3c(cc2oc1=O)N(CC(=O)NC(Cc1ccc(C)cc1)C(=O)NCC=CS(=O)(=O)c1ccccc1)CCC3 (centres unmarked),"Rhodesain (rhodesain, Trypanosoma brucei rhodesiense, UniProt Q95PM0)","enzyme activity, inhibitor, fluorescence",,5 µM,,remaining activity,60%
CCC1(CC)C(=O)N(c2cccc(CN3CCN(Cc4ccc5ccc6cccc7ccc4c5c67)CC3)c2)C1=O,Dipeptidyl peptidase 8,"enzyme activity, inhibitor",,5 µM,,remaining activity,> 90%
COc1c(Cl)ccc(CN(CCC(=O)NO)Cc2ccc(Cl)c(OC)c2F)c1F,Astl,"enzyme activity, inhibitor, fluorogenic",,0.25 µM,,remaining activity,62 ± 5%
COC(=O)[C@]1(C(C)C)C=C(C(=O)Nc2cccc(C(=O)Nc3ccc(Nc4nccc(-c5cccnc5)n4)c(C)c3)c2)C(=O)CC1,MAPK8,"kinase activity, inhibitor",,"0.002258 µM, unit not given, added: 10 mM glutathione",baseline: no inhibitor,remaining activity,1
O=C(CCN(Cc1ccc(Cl)c(O)c1F)Cc1ccc(Cl)c(O)c1F)NO,Astl,"enzyme activity, inhibitor, fluorogenic",,0.25 µM,,remaining activity,46 ± 3%
COC(=O)[C@@]1(C)C=C(C(=O)Nc2cccc(C(=O)Nc3ccc(Nc4nccc(-c5cccnc5)n4)c(C)c3)c2)C(=O)CC1,MAPK8,"enzyme activity, inhibitor",,"0.006774 µM, 0 h, unit not given, added: GSH 10 mM pre-incubation",baseline: vehicle,remaining activity,0.82

# A few entries again:
Compound,target or system,test,system,conditions,scale,endpoint,value
COC1CN([C@H]2CC[C@H]([C@@]3(C)Oc4c(Cl)cc(C(=O)NCc5c(SC)cc(C)[nH]c5=O)c(C)c4O3)CC2)C1,,"RNA-seq, item: COMMD3-BMI1","human cancer patients, whole blood","dose not given, 24 h, PRC2 target gene",baseline: pretreatment sample,log2 fold change,1.25
COC(=O)[C@]1(C(C)C)C=C(C(=O)Nc2cccc(C(=O)Nc3ccc(Nc4nccc(-c5cccnc5)n4)c(C)c3)c2)C(=O)CC1,MAPK8,"kinase activity, inhibitor",,"0.002258 µM, unit not given, added: 10 mM glutathione",baseline: no inhibitor,remaining activity,1
